Results gathered from unrelated publications.
Lines come from different studies, so protocols differ. Several values in a cell are separate wells, animals, samples, runs or records.
Target: Serine/threonine-protein kinase DCLK2 (DCLK2, Homo sapiens, UniProt Q8N568)

With `Cc1cccc(O[C@H]2CCC[C@@H](C(C)CNCc3ccncc3)C2)c1` (relative stereo) the inhibition was -1% (enzyme activity, inhibitor; 1 µM).
`CCn1cc(C(=O)O)c(=O)c2c(N)c(F)c(NC3CCCCC3)cc21` gave an inhibition of -3.8% (kinase activity; 0.1 µM, added: ATP at Km).
For `O=C(Cc1ccc(OCc2ccccc2)cc1)NC1(C(=O)O)CCN(C(=O)c2ccc(-c3cccc(Cl)c3)cc2)CC1`, “activity vs control” read 144% (enzyme activity, inhibitor; 10 µM).
`COCC12C(=O)NC3C4(C(OC)CC1O)C1CC5(O)C(OC)C(O)C(OC(C)=O)(C1C5OC(=O)c1ccccc1)C3(O)C(OC)C24` (stereo not shown) gave a remaining activity of 74% and 78% (kinase activity, inhibitor, ProQinase kinase profiling; 25 µM; baseline: control).
With `COc1ccc(NC(=O)Nc2ccc3c(c2)C(=O)N(C(C)CO)CC(C)C(CN(C)Cc2ccc4c(c2)OCO4)O3)cc1` (stereo not shown) the remaining activity was 90% (kinase activity, KinaseProfiler; 0.03 µM, species human; baseline: control).
With `Cc1ccc(-c2c(/C=C(\C#N)C(=O)NC(C)C)n(CCCO)c3ncnc(N)c23)cc1` the remaining binding was 100% (cell-free assay, competition with immobilised ligand; 1 µM).
For `CNC1C[S+]2CC[S+]3CC[S+](C1)[Ru-4]321([N]=C=S)[n]2c3ccc(OC)cc3c3c4c(c5cc(F)c[n+]1c5c32)C(=O)NC4=O` (stereo not shown), the remaining binding was 100% (KinomeScan; 0.1 µM; baseline: untreated).
`C=CC(=O)N1CCCC(n2c(=O)c3ncccc3n(Cc3ccc(Oc4ccccc4)cc3)c2=O)C1` (stereo not shown) gave a remaining binding of 100% (cell-free assay, competition with immobilised ligand; 1 µM).
For `Cc1cnc2nc1Nc1cccc(c1)COC/C=C/COCc1cc(ccc1OCCN1CCOCC1)N2`, the remaining binding was 100% (binding, competition with immobilised ligand; 0.1 µM).
For `C=CC(=O)Nc1cccc(-c2cnc3[nH]cc(C(=O)NC(C)(C)C)c3n2)c1`, the inhibition was 1% (kinase activity; 0.1 µM).
`COc1cc(Nc2nc(C)cc(-c3cnn4nc(OC)ccc34)n2)cc(C(F)(F)F)c1` gave a remaining activity of 84% (inhibitor; 1 µM, DCAMKL2; baseline: control).
`NC(=O)C[C@H]1CCc2sc3ncnc(O[C@H]4CC[C@H](N5CCOCC5)CC4)c3c21` has an inhibition of 12% (enzyme activity, inhibitor; 10 µM).
`COc1c(Cl)cccc1Nc1c(-c2ccncc2C#C[C@@]2(C)CCCN2C(=O)/C=C/CN(C)C)[nH]c2c1C(=O)NCC2` has a remaining binding of 97% (binding, competition with immobilised ligand; 3 µM).
`CNC(=O)C1CCN(c2cc(C)c(F)cc2NC(=O)c2ccc(-c3cc(O)ccc3C)c(C)c2)CC1` gave a remaining binding of 98% (binding, competition with immobilised ligand; 1 µM).
For `CNC(=O)C[C@H](Cc1ccc(C#N)cc1)NC(=O)c1cc(-c2ccc(CN[C@H](C)c3ccc(C)cc3)o2)ccc1Cl`, “activity vs control” read 128% (enzyme activity, inhibitor; 1 µM).
For `Nc1ncc2c(n1)-c1c([nH]c3ccc(C4=CCOCC4)cc13)CCC2`, the remaining binding was 100% (binding, competition with immobilised ligand; 1 µM).

Some of these lines once more:
With `Cc1ccc(-c2c(/C=C(\C#N)C(=O)NC(C)C)n(CCCO)c3ncnc(N)c23)cc1` the remaining binding was 100% (cell-free assay, competition with immobilised ligand; 1 µM).
For `Cc1cnc2nc1Nc1cccc(c1)COC/C=C/COCc1cc(ccc1OCCN1CCOCC1)N2`, the remaining binding was 100% (binding, competition with immobilised ligand; 0.1 µM).
